Measurements collected from several papers.
Numbered parts are unrelated; each lists some results of a single study. Changes are numbered by the printed parent chain.

Set 1
Target: RNA binding protein fox-1 homolog 2, RRM domain, GST-SBP tag (RBFOX2, Homo sapiens, UniProt O43251-10, residues 100-194)
Method: RNA Bind-n-Seq
Form: RNA
Sample: in vitro
Tested at: 365 nM
Setting: natural RNA segment, single round, ends assumed
Reference: no-protein control
Reading: higher = stronger binding
All sequences stand within: GGGAGUUCUACAGUCCGACGAUC … UGGAAUUCUCGGGUGCCAA
Target sequence (chain): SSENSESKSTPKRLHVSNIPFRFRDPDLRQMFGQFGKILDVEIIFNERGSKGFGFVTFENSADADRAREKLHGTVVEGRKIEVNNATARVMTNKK
Oligonucleotide | RBNS enrichment (R)
UGCUUUAAGUUGACUCUUUCUUCCUCCCUUCUCCCUCCAGACCUGUUCCUACCCUUGCUGAACAGCACAAGAUGGGUGGGUCGGGGGCUAUCAAGGCCACUGUGGUAGUG | 0.422
UUAAUUUAUGUCUGGAGCCUGGCUACUCUGCAUUUGGGAUUGGGGAUGCUGGGUGGGUGUGUGGUCCAUGUUCAGCGUUCUAGCAACACGUGUGUGUGUGUGUGUGUAAA | 2.81
GGAACACACACACAGGUGUUCUGACCAGCUCAGGCUUGCCACAGUGAGCAACUCUGUGGCUAGCAAAAGAGAAGUUUAUUUGUGCCCAGCCAUUGGUCACCUUGGGUGAU | 0.306
GGAACAAAGCAGAGACAUUUAUUCACCUUGACUCCCCAGGGAAGCCUUCCACACUAGAUGGUCCAAUCCUACUGGAUGGUCGGUUGCUGCUCACAUCUGCCUGCAAGUCU | 0.542
AGCUCACUGUAACUUCUCCCAUACUCUACCAAUCCUCCUGCCUCAGCAUCCAGACUAGCUGUGAUUACAGGUGUGCACCACCACACCCAGCUACAUUUUUUUUUGGUAGA | 0.794
UCUGACCUCAUCACCAGAGCUGCUGGUGGGGCCUCAUUCCUUGCAGCAGAUGGGUGAGCUGCACCAAAGUACCUGAGCAGUUAGGCCCCAGGUCCCCACCUGACCACCUG | 0.308
UAUUGCCAAAUGCUCUUUCUGAAAAUGCUGAAUUGCCUUUUUUGUUUGCAUCCUUUAUUUUUAAUAUUCAUAAUGUCGUGUGCUUAAAAGUGGGCUUUGAAGUGUGUGCU | 0.719
GCUCUUAGUUGUUCCCUUUCCCUGGGGCUUUUCCAUUUAACACAUGGAGCCCUUCCCCCAGAAGGCUACUUCCUUGUUUUAGAGGAAGGUACUGCCCAUUGGGAGAUGGG | 0.159
GUCUGUAUGUGGAAGACAUGUUCCCAUGGAUCAUAUGUGAAGAUGUCAAUAAGCUUGCAUUAAGCCACCUGCUUUGUAAGUGGAUUGAUUAAUAAAUAACUUAUAUUUCU | 0.46
GACUUUUUCCCGGAGAUGGGGGUGGGGGAUGUUUAGGUCCCACUAUGAUGCAAGCAGCCAUGACCCACAUUCUGUUGCUGCCUCGUUUAUGCAGAAGGUCUGAUUCCAGA | 0.453
AAGCACUGGUACCCACUGUGGGGCAAACCUGUGCUGCAGGAGGGAGCCUGGCAUACACACUCUGCAUGUUACUUCUUGAGAACUAGACCUGUGUGCCUGUGUUUUCCUGA | 2.39
GAUGACCUCAGAAUGAACUGGAUUGUGGUGUUCACAAGAAAAUCUUAGUUUGUGAUGAUUACAUUGCUUUUUGUUGUCCAGUAGUUUAGUUUGUGUACAUAUAUACACAU | 0.384

Set 2
Target: Interferon regulatory factor 7, full length, phosphomimetic (IRF7, Homo sapiens, UniProt Q92985, residues 1-503, S471D/S472D/S475D/S476D/S477D/S483D/S484D/S487D)
Method: protein-binding microarray
Form: double-stranded DNA, one strand shown
Sample: in vitro
Tested at: 2200 nM top
Setting: 60-bp whole probe
Together with: salmon DNA 0.4 mg/ml
Reference: random background probes
Reading: higher = stronger binding
All sequences stand within: GCCTAGCAC … GTCTTGATTCGCTTGACGCTGCTG
Target sequence (chain): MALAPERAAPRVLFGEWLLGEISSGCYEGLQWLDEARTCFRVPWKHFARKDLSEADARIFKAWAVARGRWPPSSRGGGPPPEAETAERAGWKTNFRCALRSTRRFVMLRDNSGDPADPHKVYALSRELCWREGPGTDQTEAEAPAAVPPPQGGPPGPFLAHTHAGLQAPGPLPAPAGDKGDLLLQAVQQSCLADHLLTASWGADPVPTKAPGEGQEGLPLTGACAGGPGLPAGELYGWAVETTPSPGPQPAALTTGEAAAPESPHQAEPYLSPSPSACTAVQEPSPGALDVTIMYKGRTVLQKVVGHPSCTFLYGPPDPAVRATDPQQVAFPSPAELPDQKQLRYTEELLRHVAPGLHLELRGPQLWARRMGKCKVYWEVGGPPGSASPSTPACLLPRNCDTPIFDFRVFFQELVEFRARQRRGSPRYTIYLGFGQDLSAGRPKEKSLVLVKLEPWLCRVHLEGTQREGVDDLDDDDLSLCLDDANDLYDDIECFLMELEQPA
Oligonucleotide | fitted relative affinity
GACGATTTCAGGCTGGAGACGTGCTAG | 0.355 z-score
GACGGACTGGGGTTTCGGAACGTGCTA | 0.831 z-score
TTAGGTCTCCCACTGCTTTAGTGCTAG | 0.643 z-score
TTAGGACTGGGTTCCGGTTAGTGCTAG | -0.0588 z-score
AAGCTTCTGGTCTTCTGGACGTGCTAG | 0.518 z-score
TTGTGTCTGGGCATTTTTTTTGTGCTA | -0.732 z-score
TCTCTTTCCACTTGTCTTTTCGTGCTA | 5.89 z-score
CTAATTTTCAATTCCTGAAAGTGCTAG | 2.03 z-score
TTCGCTTTCTTTACCACATTGTGCTAG | 3.11 z-score
CTAGATCTCAGTTTCGATTAGTGCTAG | 5.79 z-score
GACGATTTCGGGTTTTGAGACGTGCTA | 3.68 z-score
CTTTCTGTCAGTTTTGAGCTGTGCTAG | 1.81 z-score
GATGATTTCGGGACTGGAGACGTGCTA | 1.21 z-score
TGGGATTTTCCCATGAGTCTGTGCTAG | 0.261 z-score
TTAGGTATCGGTATCGGTTAGTGCTAG | 1.09 z-score
TTAGGACTAGACTATCGGTTAGTGCTA | -0.302 z-score
GACGGTATCGTCTTTCGGGACGTGCTA | 1.54 z-score

Set 3
Target: Histone acetyltransferase KAT6A, winged helix 1, GST fusion (KAT6A, Homo sapiens, UniProt Q92794, residues 1-85)
Method: protein binding microarray
Form: double-stranded DNA, one strand shown
Sample: in vitro
Tested at: not given
Setting: 8-mer, flanks averaged, mean of 2 arrays, mostly near background
Reference: not given
Reading: higher = stronger binding
Construct (chain): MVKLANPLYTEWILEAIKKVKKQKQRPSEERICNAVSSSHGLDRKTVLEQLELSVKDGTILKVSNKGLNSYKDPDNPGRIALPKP
Oligonucleotide | E-score
CCAGCACG | 0.0415
GTTAGGCA | -0.169
AGTTACTC | -0.102
CATCCGAC | 0.0259
ATGAGCCA | -0.254
ACACACGC | 0.122
GCTGAGCA | -0.161
AAACTTGG | -0.0075
AAAGTCAG | -0.00426
TTCACCAA | -0.0958
AAAGGTCA | -0.0953
CTCAGAAA | -0.16
ACGCGGCG | 0.438
ACTGCTCG | -0.132
GAACGAAA | -0.148
GTAGCGAA | -0.00855
AAATGTGT | -0.113

Set 4
Target: Sal-like protein 4, full length isoform B (SALL4, Homo sapiens, UniProt Q9UJQ4-2, residues 1-616)
Method: universal PBM
Form: double-stranded DNA, one strand shown
Sample: in vitro
Tested at: not given
Setting: 8-mer, flanks averaged, mean of replicates
Reading: higher = stronger binding
Target sequence (chain): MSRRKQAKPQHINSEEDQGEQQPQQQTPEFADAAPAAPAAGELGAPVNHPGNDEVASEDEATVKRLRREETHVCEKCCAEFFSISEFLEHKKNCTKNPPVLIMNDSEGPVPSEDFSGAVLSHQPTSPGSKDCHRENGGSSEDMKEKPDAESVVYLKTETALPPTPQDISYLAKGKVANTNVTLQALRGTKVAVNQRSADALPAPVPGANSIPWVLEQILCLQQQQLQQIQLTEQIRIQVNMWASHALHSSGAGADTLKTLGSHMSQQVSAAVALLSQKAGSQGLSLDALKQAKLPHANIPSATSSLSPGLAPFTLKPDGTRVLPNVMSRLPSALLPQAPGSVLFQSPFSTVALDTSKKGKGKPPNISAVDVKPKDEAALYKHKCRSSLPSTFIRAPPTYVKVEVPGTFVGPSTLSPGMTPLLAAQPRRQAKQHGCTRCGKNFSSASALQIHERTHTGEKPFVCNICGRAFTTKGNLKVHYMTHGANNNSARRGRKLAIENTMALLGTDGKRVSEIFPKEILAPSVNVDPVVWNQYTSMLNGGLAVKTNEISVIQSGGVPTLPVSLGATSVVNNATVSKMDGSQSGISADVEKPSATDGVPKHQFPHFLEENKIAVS
Oligonucleotide | E-score
CTGTCCTC | -0.214
CGTAAGAG | -0.111
ACCCTGCG | -0.141
CGAATAGC | 0.0215
CGGTGCAA | -0.143
AAACAACC | -0.0615
CGGGGAAA | -0.141
CGGTCGAA | -0.256
CTGAAACA | 0.152
CCGATTCG | -0.0299
ATGAGCAC | -0.0786
AATTATCT | 0.296
CATCGAGG | -0.0901
CGTTTCAA | 0.0795
ACAAGAGA | -0.0709
CCTTCGCC | -0.198
AACCTCCT | 0.0304
CTGTATCA | 0.00492
AAAAAAGA | 0.223
GAGACCGC | -0.349
ATTGGGGA | -0.0806
CGGGCCCG | -0.217

Set 5
Organism: Saccharomyces cerevisiae
Read-out: binding
Method: yeast competitive growth sequencing
Form: peptide
Setting: cyclin B2-Cln2 chimera
Reading: direction not given
Molecule | enrichment score
RDLFDCDFGDLTPLDF | 1
KRRLDLETDHQY | 0.17
KPITLDTTDFQESFVT | 1.72

Set 6
Target: ABI1, truncated, D143A, DHFR fusion (Arabidopsis thaliana)
Method: DHFR PCA, deep sequencing
Sample: yeast
Setting: methotrexate growth selection, single substitutions
Together with: (+)-ABA 17 µM
Reference: wild-type fitted maximum
Reading: higher = stronger binding
Starting sequence: PYL1, truncated, DHFR fusion (Arabidopsis thaliana); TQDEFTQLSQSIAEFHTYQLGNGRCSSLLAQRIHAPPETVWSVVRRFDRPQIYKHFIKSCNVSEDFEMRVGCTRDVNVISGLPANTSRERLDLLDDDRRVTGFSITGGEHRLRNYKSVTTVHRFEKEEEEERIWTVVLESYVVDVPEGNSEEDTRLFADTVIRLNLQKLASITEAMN
Substitution | relative binding score
R88P | -19.8%
S27E | 21.6%
D65G | 83.8%
Q51F | 48.4%
C72G | 55.1%
S59I | 32.8%
V118E | 12.9%
T86A | 59.3%
D144Q | 37.6%
S140K | -12.3%
F157V | 38.7%
I12C | 31.1%
A30Y | 79.5%
E139W | 68.5%
Q31A | 25.5%
D153K | -15.7%
D159V | -4.66%
G71A | 8.55%
A13P | -3.23%
D144I | 9.95%
N22E | 88.6%
L166Q | 3.03%
P50R | -14.4%

Some of these lines once more (set 2):
Oligonucleotide | fitted relative affinity
TGGGATTTTCCCATGAGTCTGTGCTAG | 0.261 z-score
CTAATTTTCAATTCCTGAAAGTGCTAG | 2.03 z-score
GACGGACTGGGGTTTCGGAACGTGCTA | 0.831 z-score
GATGATTTCGGGACTGGAGACGTGCTA | 1.21 z-score
TTAGGTATCGGTATCGGTTAGTGCTAG | 1.09 z-score
TTAGGACTAGACTATCGGTTAGTGCTA | -0.302 z-score
TCTCTTTCCACTTGTCTTTTCGTGCTA | 5.89 z-score
CTAGATCTCAGTTTCGATTAGTGCTAG | 5.79 z-score
GACGATTTCGGGTTTTGAGACGTGCTA | 3.68 z-score
CTTTCTGTCAGTTTTGAGCTGTGCTAG | 1.81 z-score
